Experimental data collected from several papers.
Values joined by “and” are separate records of one study, mostly repeats; a detail may differ. ± marks the error that the study gave.

CCCCN1C(=O)c2cccc3c(NCCN4CCOCC4)ccc(c23)C1=O gave a fluorescence lifetime of 7.9 ns (toluene).
For O=C(NS(=O)(=O)c1cccs1)c1cc2ccccc2n1Cc1ccc(Br)c2ccccc12, the concentration was 47700 ng/g and 66700 ng/g and 137000 ng/g (Sprague-Dawley rat, male, ankle joint tissue; oral, 2 mg/kg, 2 h).
For Cc1nc(N)nc2c1C(=O)N[C@@H](c1ccc(F)cc1-c1cccc(O[11CH3])n1)C2, the tracer uptake was 1.9 ± 0.2 %ID (ex vivo biodistribution; healthy mice, pancreas; 60 min post-injection, baseline, vehicle pre-treatment).
Under “Cmax at second steady-state dose”, CN1CCC[C@]1(C)/C=C/S(=O)(=O)NC(=O)Nc1c2c(cc3c1CCC3)CC=C2 is recorded as 22500 ng/mL (human, plasma; oral, 50 mg twice daily of parent drug, day 14, metabolite of dosed drug).
For CC(CC1CC2=C(CC1(C)C)C(C)(C)CCC2)=NNC(N)=S (centres unmarked), the translation activity was 106% and 124% and 102% and 97.3% (Trypanosoma cruzi; reporter mRNA translation, inhibitor, item: capped polyadenylated Renilla luciferase mRNA; cell-free extract; concentration not given; relative to: positive over negative control).
For CNc1cc(C)c(C(N)=O)cn1, “concentration at time” read 25.2 nM (Han Wistar rats, male, plasma; oral, 30 mg/kg, 24.0 h).
With C=CC(=O)Nc1cc(Nc2nccc(-c3cn(C)c4ccccc34)n2)c(OC)cc1N(C)CCNC the recovery was 61.6% (storage stability; human plasma; 10 d, on ice, LLOQ level).
The intact complex of CC(=O)N([O-])CCCCCNC(=O)CCC(=O)N([O-])CCCCCNC(=O)CCC(=O)N([O-])CCCCCN.[89Zr+4] is reported as 92.7 ± 3.4% (mouse plasma; 3 d, 37 °C).
O=c1[nH]c2ccccc2c(=O)n1O has a logD of 0.05 (shake flask; aqueous buffer; pH 7.4).
For C#CCOCCOCCOCCOCCn1cc(C(ONC(=O)/C=C/C(C)=C/C2(C)Oc3cc(N(C)C)ccc3C2=O)(c2ccc(C)cc2)c2ccc(C)cc2)nn1 (centres unmarked), “release from prodrug hydrolysis” read 70.1% (HPLC; aqueous buffer, 20% acetonitrile; concentration not given, 94 min, pH 3; relative to: initial prodrug amount).
With Nc1nc2nn[nH]c2c(=O)[nH]1 the translation activity was 101% (Trypanosoma cruzi; reporter mRNA translation, inhibitor, item: Renilla luciferase mRNA; cell-free extract; concentration not given, test 2; relative to: positive over negative control).
For CN(C)S(=O)(=O)c1ccc(S(=O)(=O)N2CCC(n3c(=O)[nH]c4ccccc43)CC2)cc1, the body weight was 94.8% (mouse; intraperitoneal, 6 mg/kg, 1 day; relative to: day 0).
CN1CCCNC(=O)c2cccc(c2)C(=O)NCCCN(C)CCCNc2cccc3c2C(=O)c2cccc(c2C3=O)NCCC1 gave a body weight of 26 g and 27 g and 29 g (mouse xenograft model; dose not given, day 4).
For O=S(=O)(NCc1ccncc1)c1ccc(C2CCCCC2)cc1, “swim speed change” read 17 ± 3 cm/s (wild-type littermate mouse; 0.3 mg/kg; relative to: vehicle).
COc1cccc(OC)c1-c1cc(C(=O)NC2(C(=O)O)C3CC4CC(C3)CC2C4)nn1-c1ccc(C(=O)N(C)CCOCCOCCN(C)C(=O)[C@H](CCCCNC(=O)[C@H](CC(C)C)NC(=O)C2OC2C(=O)O)NC(=O)CN2CCN(CC(=O)[O-])CCN(CC(=O)[O-])CCN(CC(=O)[O-])CC2)cc1C(C)C.[177Lu+3] (mixture of isomers) has a tissue uptake of 0.33 %ID/g (mouse, HT-29 xenograft, liver; 168 h post injection).
O=C(Nc1cnccc1-c1ccc([18F])cc1)c1ccnc(NC(=O)C2CC2)c1 gave an SUV of 0.31 (mice, transgenic, GSK-3β, early-stage, heart; intravenous, dose not given, 120 min, with: tariquidar 15 mg/kg i.v. pre-dose).
CCC1CNC(CC)CN(C(C(=O)[O-])c2ccc(C(=O)[O-])cc2)C(CC)CN(CC(=O)[O-])C(CC)CN1.[Mn+2] (centres unmarked) gave a Mn uptake of 6.62 ± 0.87% (ICP-MS; BALB/c mice, liver; intravenous, 0.05 mmol/kg, 30 min; relative to: injected dose).

Some of these lines once more:
For O=C(NS(=O)(=O)c1cccs1)c1cc2ccccc2n1Cc1ccc(Br)c2ccccc12, the concentration was 47700 ng/g and 66700 ng/g and 137000 ng/g (Sprague-Dawley rat, male, ankle joint tissue; oral, 2 mg/kg, 2 h).
O=c1[nH]c2ccccc2c(=O)n1O has a logD of 0.05 (shake flask; aqueous buffer; pH 7.4).
The intact complex of CC(=O)N([O-])CCCCCNC(=O)CCC(=O)N([O-])CCCCCNC(=O)CCC(=O)N([O-])CCCCCN.[89Zr+4] is reported as 92.7 ± 3.4% (mouse plasma; 3 d, 37 °C).
